{"data": "Assay results of several laboratories", "note": "Compare with care: the assays were run in different laboratories. ± gives the spread as reported."}
{"SMILES": "O=C(O)C[C@H](O)C[C@H](O)/C=C/c1c(C2CC2)nc2ccccc2c1-c1ccc(F)cc1", "test system": "male Sprague-Dawley rat (wild type)", "conditions": "oral, 5 mg/kg", "CL/F [mL/min/kg]": "42.3 ± 9.55"}
{"SMILES": "O=C(/C=C/c1ccc(O)c(O)c1/C=C/c1ccc(O)c(O)c1)O[C@H](Cc1ccc(O)c(O)c1)C(=O)O", "test": "UPLC-MS/MS", "test system": "Wistar rat, microcirculation dysfunction model, plasma", "conditions": "oral, 100 mg/kg Salvia miltiorrhiza stem-leaf extract FS", "CL/F [mL/min/kg]": "40.8 ± 19.7"}
{"SMILES": "CCCC[C@H](NC(C)=O)C(=O)N[C@H]1CCC(=O)NC[C@@H](C(=O)N[C@@H](Cc2c[nH]c3ccccc23)C(N)=O)NC(=O)[C@H](CCCNC(=N)N)NC(=O)[C@@H](Cc2ccccc2)NC(=O)[C@H](Cc2c[nH]cn2)NC1=O", "test system": "CD Sprague Dawley rat, male, plasma", "conditions": "subcutaneous, 5.0 mg/kg daily, day 1", "CL/F [mL/min/kg]": 18.5}
{"SMILES": "O=C(O)/C=C/c1ccc(O)c(O)c1", "test": "UPLC-MS/MS", "test system": "Wistar rat, microcirculation dysfunction model, plasma", "conditions": "oral, 100 mg/kg Salvia miltiorrhiza stem-leaf extract FT", "CL/F [mL/min/kg]": "6.17 ± 3"}
{"SMILES": "CCN(CC)Cc1cc(Nc2ccnc3cc(Cl)ccc23)ccc1O", "test system": "rat, Wistar, male, plasma", "conditions": "oral, 60 mg/kg, with: myricetin 5 mg/kg iv", "CL/F [mL/min/kg]": "168 ± 22.7"}
{"SMILES": "N#C[C@]1(CO)O[C@@H](n2cnc3c(=O)[nH]c(N)nc32)C[C@@H]1O", "test system": "male Sprague-Dawley rat, plasma", "conditions": "oral, 1 mg/kg, with: entecavir 1 mg/kg", "CL/F [mL/min/kg]": "128 ± 45.5"}
{"SMILES": "CC(C)=CCC[C@](C)(O[C@@H]1O[C@H](CO[C@@H]2O[C@H](CO)[C@@H](O)[C@H](O)[C@H]2O)[C@@H](O)[C@H](O)[C@H]1O)[C@H]1CC[C@]2(C)[C@@H]1[C@H](O)C[C@@H]1[C@@]3(C)CC[C@H](O[C@@H]4O[C@H](CO)[C@@H](O)[C@H](O)[C@H]4O[C@@H]4O[C@H](CO)[C@@H](O)[C@H](O)[C@H]4O)C(C)(C)[C@@H]3CC[C@]12C", "test system": "Sprague Dawley rat, male, plasma", "conditions": "oral, 86 mg/kg, in red ginseng extract", "CL/F [mL/min/kg]": "3.33 ± 0.667"}
{"SMILES": "C[C@@H]1O[C@@H](OC[C@H]2O[C@@H](Oc3c(-c4ccc(O)c(O)c4)oc4cc(O)cc(O)c4c3=O)[C@H](O)[C@@H](O)[C@@H]2O)[C@H](O)[C@H](O)[C@H]1O", "test": "UPLC-MS/MS", "test system": "Wistar rat, microcirculation dysfunction model, plasma", "conditions": "oral, 100 mg/kg Salvia miltiorrhiza stem-leaf extract FT", "CL/F [mL/min/kg]": "268 ± 137"}
{"SMILES": "CC(C)=CCC[C@](C)(O[C@@H]1O[C@H](CO)[C@@H](O)[C@H](O)[C@H]1O)[C@H]1CC[C@]2(C)[C@@H]1[C@H](O)C[C@@H]1[C@@]3(C)CC[C@H](O)C(C)(C)[C@@H]3[C@@H](O[C@@H]3O[C@H](CO)[C@@H](O)[C@H](O)[C@H]3O[C@@H]3O[C@@H](C)[C@H](O)[C@@H](O)[C@H]3O)C[C@]12C", "test system": "Sprague Dawley rat, male, plasma", "conditions": "oral, 45 mg/kg, in frozen ginseng extract", "CL/F [mL/min/kg]": "61.7 ± 25"}
{"SMILES": "O=C(/C=C/c1ccc(O)c2c1[C@H](C(=O)O)[C@@H](c1ccc(O)c(O)c1)O2)O[C@H](Cc1ccc(O)c(O)c1)C(=O)O", "test": "UPLC-MS/MS", "test system": "Wistar rat, microcirculation dysfunction model, plasma", "conditions": "oral, 100 mg/kg Salvia miltiorrhiza stem-leaf extract FS", "CL/F [mL/min/kg]": "98.3 ± 19.7"}
{"SMILES": "C=C1[C@H](CO)[C@@H](O)C[C@@H]1n1cnc2c(=O)[nH]c(N)nc21", "test system": "male Sprague-Dawley rat, plasma", "conditions": "oral, 1 mg/kg, with: CdG 1 mg/kg", "CL/F [mL/min/kg]": "121 ± 17.7"}
{"SMILES": "CC(C)=CCC[C@](C)(O[C@@H]1O[C@H](CO)[C@@H](O)[C@H](O)[C@H]1O)[C@H]1CC[C@]2(C)[C@@H]1[C@H](O)C[C@@H]1[C@@]3(C)CC[C@H](O[C@@H]4O[C@H](CO)[C@@H](O)[C@H](O)[C@H]4O[C@@H]4O[C@H](CO)[C@@H](O)[C@H](O)[C@H]4O)C(C)(C)[C@@H]3CC[C@]12C", "test system": "Sprague Dawley rat, male, plasma", "conditions": "oral, 42 mg/kg, in frozen ginseng extract", "CL/F [mL/min/kg]": "18.3 ± 8.33"}
{"note": "For quick reference, copied from above:"}
{"SMILES": "O=C(/C=C/c1ccc(O)c(O)c1/C=C/c1ccc(O)c(O)c1)O[C@H](Cc1ccc(O)c(O)c1)C(=O)O", "test": "UPLC-MS/MS", "test system": "Wistar rat, microcirculation dysfunction model, plasma", "conditions": "oral, 100 mg/kg Salvia miltiorrhiza stem-leaf extract FS", "CL/F [mL/min/kg]": "40.8 ± 19.7"}
{"SMILES": "CC(C)=CCC[C@](C)(O[C@@H]1O[C@H](CO)[C@@H](O)[C@H](O)[C@H]1O)[C@H]1CC[C@]2(C)[C@@H]1[C@H](O)C[C@@H]1[C@@]3(C)CC[C@H](O[C@@H]4O[C@H](CO)[C@@H](O)[C@H](O)[C@H]4O[C@@H]4O[C@H](CO)[C@@H](O)[C@H](O)[C@H]4O)C(C)(C)[C@@H]3CC[C@]12C", "test system": "Sprague Dawley rat, male, plasma", "conditions": "oral, 42 mg/kg, in frozen ginseng extract", "CL/F [mL/min/kg]": "18.3 ± 8.33"}
